Experimental data collected from several papers.
Lines come from different studies, so protocols differ. Numbers after ± are the reported error. ≈ marks a conversion by molar mass, not a printed value.

SMILES	organism	test	test system	conditions	how to read	measurement	result
CCn1c2ccccc2c2cc(/C=N/NC(=O)Cn3ccc(=O)c4ccccc43)ccc21	Phytophthora capsici	microbial growth		50 µg/mL		inhibition	26.2%
Cc1cn(C2CC(N(C)C)C(CO)O2)c(=O)[nH]c1=O (stereo not shown)	herpes simplex virus 2	viral replication	HEL, G			EC50	> 0.37 µM
C[C@@](O)(C(F)F)[C@H](NC(=O)c1ccc(C#CC#CC2CC2)cc1)C(=O)NO	Enterobacteriaceae		ESBL, carbapenemase negative			MIC50	0.064 µg/mL
CC[C@H](C)[C@H](NC(=O)[C@@H](NC(=O)CN)C(C)C)C(=O)N[C@@H](Cc1ccccc1)C(=O)N[C@@H](CC(N)=O)C(=O)N[C@@H](C)C(=O)N[C@@H](CC(C)C)C(=O)N[C@@H](CCCCN)C(=O)NCC(=O)N[C@H](C(=O)N[C@@H](C)C(=O)N[C@@H](CCCCN)C(=O)N[C@H](C(=O)N[C@H](C(=O)N[C@@H](C)C(=O)N[C@@H](C)C(=O)N[C@@H](CCC(N)=O)C(=O)N[C@@H](CC(C)C)C(=O)N[C@@H](CC(C)C)C(=O)N[C@@H](CCCCN)C(=O)N[C@@H](CCCCN)C(=O)N[C@@H](C)C(=O)N[C@@H](CCCNC(=N)N)C(=O)N[C@H]1CSSC[C@@H](C(=O)O)NC(=O)[C@H](CO)NC(=O)[C@H](CCCCN)NC(=O)[C@H](CC(=O)O)NC(=O)[C@H](CC(C)C)NC(=O)[C@H](CCCCN)NC1=O)C(C)C)[C@@H](C)O)C(C)C	Staphylococcus aureus	persister cells in biofilm	MRSA NCTC 12493	with: vancomycin 4 µg/mL		MBEC	512 µM
O=C(Cc1csc2nc(-c3ccc(Br)cc3)cn12)NN=C1CCCC1	Feline herpesvirus	viral cytopathicity, microscopy	CRFK			EC50	> 100 µg/mL
CC[C@H](C)[C@H](NC(=O)[C@H](CCCCN)NC(=O)[C@H](CCCCN)NC(=O)[C@H](CC(C)C)NC(=O)[C@H](CCCCN)NC(=O)[C@H](CCC(=O)O)NC(=O)[C@H](CCCCN)NC(=O)[C@@H](NC(=O)[C@H](CCCCN)NC(=O)[C@H](CC(N)=O)NC(=O)[C@H](CCCNC(=N)N)NC(=O)[C@H](Cc1ccccc1)NC(=O)[C@H](CCCCN)NC(=O)[C@H](CCCNC(=N)N)NC(=O)[C@H](CC(C)C)NC(=O)[C@H](CCCNC(=N)N)NC(=O)[C@H](CCCCN)NC(=O)[C@H](CCCNC(=N)N)NC(=O)[C@H](CC(C)C)NC(=O)[C@@H](N)CC(C)C)[C@@H](C)CC)C(=O)NCC(=O)N[C@@H](CCC(N)=O)C(=O)N[C@@H](CCCCN)C(=O)N[C@H](C(=O)N[C@@H](CCC(N)=O)C(=O)NCC(=O)N[C@@H](Cc1ccccc1)C(=O)N[C@H](C(=O)N1CCC[C@H]1C(=O)N[C@@H](CCCCN)C(=O)N[C@@H](CC(C)C)C(=O)N[C@H](C(=O)N1CCC[C@H]1C(=O)N[C@@H](CCCNC(=N)N)C(=O)N[C@H](C(=O)N[C@@H](CCC(=O)O)C(=O)N[C@@H](CO)C(=O)O)[C@@H](C)O)C(C)C)C(C)C)[C@@H](C)CC	Streptococcus mutans	inhibition zone	ATCC 1.2499	LB agar, overnight		lethal concentration	2.02 µM
C[C@@H]1C[C@H](Nc2ccccc2)c2cc(F)ccc2N1C(=O)c1ccc(F)cc1	Aedes albopictus		second-instar larvae	72 h		LC50	2.09 µM
O=C(Nc1ccccc1Nc1ccccc1)c1cccnc1Cl	Sclerotinia sclerotiorum	microbial growth		50 µg/mL		inhibition	0%
Nc1ncnc2c1c(F)cn2[C@@H]1O[C@H](CO)[C@@H](O)[C@H]1O	Trypanosoma brucei brucei	parasite growth, resazurin	Squib 427	72 h		EC50	0.035 ± 0.001 µM
CC[C@@H](C)[C@@H](NC(=O)[C@@H](C)NC(=O)[C@@H](CCCCN)NC(=O)[C@@H](CC(C)C)NC(=O)[C@@H](C)NC(=O)[C@H](NC(=O)[C@@H](Cc1c[nH]cn1)NC(=O)[C@@H](CC(C)C)NC(=O)[C@H](NC(=O)[C@H](NC(=O)[C@@H](CCCCN)NC(=O)[C@@H](CCCCN)NC(=O)[C@@H](C)NC(=O)[C@@H](CO)NC(=O)[C@@H](CCCCN)NC(=O)[C@@H](Cc1ccccc1)NC(=O)[C@H](NC(=O)[C@@H](CCCCN)NC(=O)[C@@H](CC(C)C)NC(=O)[C@@H](Cc1ccccc1)NC(=O)[C@@H](CO)NC(=O)[C@@H](CCCCN)NC(=O)[C@@H](Cc1c[nH]c2ccccc12)NC(=O)[C@@H](CCCCN)NC(C)=O)[C@H](C)O)[C@H](C)O)C(C)C)[C@H](C)O)C(=O)N[C@H](CO)C(=O)N[C@H](CO)C(N)=O	Rhizopus microsporus		clinical isolate	48 h, 30 °C		MIC90	12.5 µg/mL (≈ 4.18 µM)
C[C@@H]1C[C@H](Nc2ccccc2)c2cc(F)ccc2N1C(=O)c1ccc(C#N)cc1	Aedes albopictus			1 µM, 72 h, second-instar larvae	relative to: Abbott-corrected control	mortality	74 ± 4%
Nc1ccn(C[C@@H](CO)OCP(=O)(O)OCCCS(=O)(=O)CCCCCCCCCCCCC2CCC2)c(=O)n1	Murid betaherpesvirus 1	qPCR	MEF, Smith		relative to: CC50 over EC50	selectivity index	> 3570
OC[C@H]1O[C@@H]([Se]Cc2cccc(C[Se][C@@H]3O[C@H](CO)[C@H](O)[C@H](O)[C@H]3O)c2)[C@H](O)[C@@H](O)[C@H]1O	Trypanosoma brucei	parasite growth, flow cytometry		5 µM, 24 h		viability	99.6%
CCCCc1ccc(-c2nc(C)c(C(C)=NNC(=N)N)s2)cc1	Staphylococcus aureus		ATCC 43300 MRSA			MBC	1.3 µg/mL
CS(=O)(=O)c1ccc(/C=N/NC(=O)Cn2ccc(=O)c3ccccc32)cc1	Tobacco mosaic virus	viral infectivity, in vivo plant		500 µg/mL		inactivation activity	32.7 ± 3.8%
O=[N+]([O-])c1ccc(/C=N/N=C/c2ccc(OCc3ccccc3)cc2)o1	Trypanosoma congolense		IL3000, mouse	intraperitoneal, 10 mg/kg daily for 7 days, from day 4 post-infection		day of death	8 days post-infection
CC[C@@H](C)[C@@H](NC(=O)[C@@H](C)NC(=O)[C@@H](CCCCN)NC(=O)[C@@H](CC(C)C)NC(=O)[C@@H](C)NC(=O)[C@H](NC(=O)[C@@H](CCCCN)NC(=O)[C@@H](CC(C)C)NC(=O)[C@H](NC(=O)[C@@H](CCCCN)NC(=O)[C@@H](CCCCN)NC(=O)[C@@H](CCCCN)NC(=O)[C@@H](C)NC(=O)[C@@H](CCCCN)NC(=O)[C@@H](CO)NC(=O)[C@@H](Cc1ccccc1)NC(=O)[C@H](NC(=O)[C@@H](CCCCN)NC(=O)[C@@H](CC(C)C)NC(=O)[C@@H](Cc1ccccc1)NC(=O)[C@@H](CO)NC(=O)[C@@H](CCCCN)NC(=O)[C@@H](Cc1c[nH]c2ccccc12)NC(=O)[C@@H](CCCCN)NC(C)=O)[C@H](C)O)C(C)C)[C@H](C)O)C(=O)N[C@H](CO)C(=O)N[C@H](CCCCN)C(N)=O	Acinetobacter baumannii		11 isolates		relative to: HC50 over geometric mean MIC	therapeutic index	424
COc1cc(O)cc(/C=C/c2ccccc2)c1	Streptococcus mutans	microbial growth				MIC50	546 µM
NNC(=O)/C=C/c1ccc(N)cc1	Aedes aegypti	larval mortality		72 h, larva		LC50	115 µg/mL
CCCCCc1ccc(C(=O)N2c3ccc(F)cc3[C@@H](Nc3ccccc3)C[C@H]2C)cc1	Aedes albopictus			1 µM, 72 h, second-instar larvae	relative to: Abbott-corrected control	mortality	50 ± 3%
CC[C@H](C)[C@H](NC(=O)[C@H](CO)NC(=O)[C@H](CO)NC(=O)[C@H](Cc1ccccc1)NC(=O)CN)C(=O)N[C@@H](Cc1ccccc1)C(=O)N[C@@H](CCCNC(=N)N)C(N)=O	Escherichia coli		ATCC 8739	with: 150 mM NaCl		MBC	> 128 µM
CC[C@H](C)[C@H](N)C1=N[C@H](C(=O)N[C@@H](CC(C)C)C(=O)N[C@H](CCC(=O)O)C(=O)N[C@H](C(=O)N[C@H]2CCCCNC(=O)[C@H](CC(N)=O)NC(=O)[C@@H](CC(=O)O)NC(=O)[C@H](Cc3c[nH]cn3)NC(=O)[C@@H](Cc3ccccc3)NC(=O)[C@H]([C@@H](C)CC)NC(=O)[C@@H](CCCN)NC2=O)[C@@H](C)CC)CS1	Enterococcus faecium		vanA clinical isolates	with: ZnSO4 0.3 mM		MIC90	64 µg/mL (≈ 45 µM)

Repeated from above:
SMILES	organism	test	test system	conditions	how to read	measurement	result
CC[C@@H](C)[C@@H](NC(=O)[C@@H](C)NC(=O)[C@@H](CCCCN)NC(=O)[C@@H](CC(C)C)NC(=O)[C@@H](C)NC(=O)[C@H](NC(=O)[C@@H](CCCCN)NC(=O)[C@@H](CC(C)C)NC(=O)[C@H](NC(=O)[C@@H](CCCCN)NC(=O)[C@@H](CCCCN)NC(=O)[C@@H](CCCCN)NC(=O)[C@@H](C)NC(=O)[C@@H](CCCCN)NC(=O)[C@@H](CO)NC(=O)[C@@H](Cc1ccccc1)NC(=O)[C@H](NC(=O)[C@@H](CCCCN)NC(=O)[C@@H](CC(C)C)NC(=O)[C@@H](Cc1ccccc1)NC(=O)[C@@H](CO)NC(=O)[C@@H](CCCCN)NC(=O)[C@@H](Cc1c[nH]c2ccccc12)NC(=O)[C@@H](CCCCN)NC(C)=O)[C@H](C)O)C(C)C)[C@H](C)O)C(=O)N[C@H](CO)C(=O)N[C@H](CCCCN)C(N)=O	Acinetobacter baumannii		11 isolates		relative to: HC50 over geometric mean MIC	therapeutic index	424
